{"data": "Measured values from different studies", "target": "Serine/threonine-protein kinase tousled-like 2 (TLK2, Homo sapiens, UniProt Q86UE8)", "note": "Protocols differ between the studies behind these lines.", "UniProt Q86UE8, sequence (whole entry, looked up)": "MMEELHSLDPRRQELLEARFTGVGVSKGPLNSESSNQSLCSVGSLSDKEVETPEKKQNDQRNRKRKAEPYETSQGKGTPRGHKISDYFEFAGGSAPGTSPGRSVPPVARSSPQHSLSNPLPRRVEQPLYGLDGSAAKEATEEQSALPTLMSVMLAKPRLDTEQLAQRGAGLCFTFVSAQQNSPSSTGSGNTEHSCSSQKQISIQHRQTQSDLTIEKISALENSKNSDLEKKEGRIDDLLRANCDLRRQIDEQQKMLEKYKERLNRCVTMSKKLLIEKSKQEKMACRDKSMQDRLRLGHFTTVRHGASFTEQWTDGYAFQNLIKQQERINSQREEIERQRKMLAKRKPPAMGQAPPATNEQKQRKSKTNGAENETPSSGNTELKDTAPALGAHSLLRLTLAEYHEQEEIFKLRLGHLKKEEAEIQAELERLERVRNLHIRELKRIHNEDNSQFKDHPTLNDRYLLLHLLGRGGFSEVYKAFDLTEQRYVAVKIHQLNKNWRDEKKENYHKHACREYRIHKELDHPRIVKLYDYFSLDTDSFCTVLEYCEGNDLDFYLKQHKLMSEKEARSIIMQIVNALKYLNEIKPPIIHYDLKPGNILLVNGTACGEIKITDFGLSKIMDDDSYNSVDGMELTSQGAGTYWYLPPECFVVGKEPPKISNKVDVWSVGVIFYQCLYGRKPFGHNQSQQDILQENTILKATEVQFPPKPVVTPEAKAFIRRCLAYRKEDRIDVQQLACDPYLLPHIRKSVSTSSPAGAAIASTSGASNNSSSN"}
{"SMILES": "NC(=O)[C@@H](O)C[C@H]1CCc2sc3ncnc(O[C@H]4CC[C@H](N5CCOCC5)CC4)c3c21", "assay": "enzyme activity, inhibitor", "conditions": "10 µM", "quantity": "inhibition", "result": "-5%"}
{"SMILES": "CNC(=O)C[C@H](Cc1ccc(C#N)cc1)NC(=O)c1cc(-c2ccc(CN[C@H](C)c3ccc(C)cc3)o2)ccc1Cl", "assay": "enzyme activity, inhibitor", "conditions": "1 µM", "quantity": "activity vs control", "result": "92%"}
{"SMILES": "CCN1CCN(Cc2ccc(NC(=O)c3ccc(C)c(NC(=O)c4cncc(-c5cnn(C)c5)c4)c3)cc2C(F)(F)F)CC1", "assay": "binding, competition with immobilised ligand", "conditions": "1 µM", "quantity": "remaining binding", "result": "96%"}
{"SMILES": "Nc1ncc2c(n1)-c1c([nH]c3ccc(C4=CCOCC4)cc13)CCC2", "assay": "binding, competition with immobilised ligand", "conditions": "1 µM", "quantity": "remaining binding", "result": "100%"}
{"SMILES": "Cc1ccc(C(=O)Nc2ccc(CN3CCN(C)CC3)c(C(F)(F)F)c2)cc1C#Cc1cnc2cccnn12", "assay": "target engagement, NanoBRET", "test system": "human cells", "quantity": "Hill slope", "result": 0.112}
{"SMILES": "COc1cc(Nc2nc(C)cc(-c3cnn4nc(OC)ccc34)n2)cc(C(F)(F)F)c1", "assay": "binding, competition with immobilised ligand", "conditions": "1 µM", "quantity": "remaining binding", "result": "98%"}
{"SMILES": "Cc1cnc2nc1Nc1cccc(c1)COC/C=C/COCc1cc(ccc1OCCN1CCOCC1)N2", "assay": "binding, competition with immobilised ligand", "conditions": "0.1 µM", "quantity": "remaining binding", "result": "93%"}
{"SMILES": "CNC1C[S+]2CC[S+]3CC[S+](C1)[Ru-4]321([N]=C=S)[n]2c3ccc(OC)cc3c3c4c(c5cc(F)c[n+]1c5c32)C(=O)NC4=O (centres unmarked)", "assay": "KinomeScan", "conditions": "0.1 µM", "how to read": "reference: untreated", "quantity": "remaining binding", "result": "95%"}
{"SMILES": "CS(=O)(=O)Nc1cccc(-c2csc3cnc(Nc4ccc(N5CCN(CCCCCOc6cccc7c6C(=O)N(C6CCC(=O)NC6=O)C7=O)CC5)cc4)nc23)c1 (centres unmarked)", "assay": "probe labelling, inhibitor, KiNativ chemoproteomics", "test system": "MOLT-4", "conditions": "1 µM", "quantity": "inhibition", "result": "25.5%"}
{"SMILES": "CN1CCN(Cc2ccc(-c3ccc(CO[C@H]4CCC[C@@H]4NC(=O)c4cc(-c5cnn(C)c5)cnc4N)cc3)cc2)CC1", "assay": "enzyme activity, inhibitor", "conditions": "0.1 µM", "quantity": "inhibition", "result": "5%"}
{"SMILES": "CC(C)=CC1OC(C)(C)C2C=C3C(=O)C(Cl)=CC(O)C3C3C(O)C4OC4C(=O)C132 (centres unmarked)", "assay": "cell-free assay, competition with immobilised ligand", "conditions": "10 µM", "quantity": "remaining binding", "result": "94%"}
{"SMILES": "Cc1ccc(-c2c(/C=C(\\C#N)C(=O)NC(C)C)n(CCCO)c3ncnc(N)c23)cc1", "assay": "cell-free assay, competition with immobilised ligand", "conditions": "1 µM", "quantity": "remaining binding", "result": "82%"}
{"SMILES": "CNC(=O)C1CCN(c2cc(C)c(F)cc2NC(=O)c2ccc(-c3cc(O)ccc3C)c(C)c2)CC1", "assay": "binding, competition with immobilised ligand", "conditions": "1 µM", "quantity": "remaining binding", "result": "96%"}
{"SMILES": "CN1CC[C@@H](COc2cnc(C#N)cc2-c2ccn3nc(NC(=O)C4CC4)cc3c2)C1", "assay": "enzyme activity, inhibitor", "conditions": "1 µM", "quantity": "inhibition", "result": "-8%"}
